{"data": "Measurements from different studies", "note": "Numbered parts are unrelated; each lists some results of a single study. Positions count from the first letter of the parent shown."}
{"data": "Sample 1", "target": "Histone acetyltransferase KAT6A, winged helix 1, GST fusion (KAT6A, Homo sapiens, UniProt Q92794, residues 1-85)", "method": "protein binding microarray", "form": "double-stranded DNA, one strand shown", "sample": "in vitro", "tested at": "not given", "notes": "8-mer, flanks averaged, mean of 2 arrays, mostly near background", "relative to": "not given", "direction": "higher = stronger binding", "Target sequence (chain)": "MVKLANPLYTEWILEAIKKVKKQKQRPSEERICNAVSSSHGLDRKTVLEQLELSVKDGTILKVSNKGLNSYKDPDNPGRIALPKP"}
{"Sequence": "ATAACTGG", "E-score": -0.243}
{"Sequence": "ATAAACAG", "E-score": -0.216}
{"Sequence": "ATCGGCTG", "E-score": 0.0175}
{"Sequence": "CACATGGA", "E-score": -0.187}
{"Sequence": "ATGGGCCG", "E-score": 0.199}
{"Sequence": "GAGGGGAC", "E-score": -0.115}
{"Sequence": "GGTGTTAA", "E-score": 0.0211}
{"Sequence": "TACTAAAA", "E-score": 0.0169}
{"Sequence": "AAATTGGG", "E-score": -0.269}
{"Sequence": "GCGACTAA", "E-score": 0.0497}
{"Sequence": "ACTTAAGT", "E-score": -0.179}
{"Sequence": "ATGTTCCC", "E-score": 0.0055}
{"Sequence": "AGTCAAAT", "E-score": -0.291}
{"Sequence": "ATACCCCA", "E-score": -0.188}
{"Sequence": "GCCGCGGC", "E-score": 0.479}
{"Sequence": "AAAGTATA", "E-score": -0.134}
{"Sequence": "AGGCCCAT", "E-score": -0.11}
{"Sequence": "TATTTCGA", "E-score": -0.0668}
{"Sequence": "ACCCCGCA", "E-score": 0.267}
{"Sequence": "TCTAAAGA", "E-score": -0.0854}
{"Sequence": "GAATTGCC", "E-score": 0.0603}
{"Sequence": "TCACAAAA", "E-score": -0.177}
{"Sequence": "GTAGCTAA", "E-score": -0.141}
{"Sequence": "ACGTCACG", "E-score": 0.122}
{"Sequence": "TGTTGGAA", "E-score": -0.244}
{"data": "Sample 2", "target": "RNA binding protein fox-1 homolog 2, RRM domain, GST-SBP tag (RBFOX2, Homo sapiens, UniProt O43251-10, residues 100-194)", "method": "RNA Bind-n-Seq", "form": "RNA", "sample": "in vitro", "tested at": "365 nM", "notes": "natural RNA segment, single round, ends assumed", "relative to": "no-protein control", "direction": "higher = stronger binding", "constant ends, left off below": "GGGAGUUCUACAGUCCGACGAUC … UGGAAUUCUCGGGUGCCAA", "Residues (chain)": "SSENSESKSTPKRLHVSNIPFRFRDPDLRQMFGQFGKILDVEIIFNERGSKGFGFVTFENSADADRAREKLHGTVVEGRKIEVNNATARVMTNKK"}
{"Sequence": "AGAUUUUCUUCUGAGAAGAAUUUGUGUUUAAUUUUUGAUACCAACACUGAACAUUCAUCAGGGAACUUUCCUCAAGUCUAACUGCUGUGUUUGUGAGAAGAGCAGAAUCA", "RBNS enrichment (R)": 0.437}
{"Sequence": "AUGGUGAUACAUUCUAGCCUUAAGACAUUUGAAUUGCCGGUUGUUGAGGUGAAUUUUGUUUGUCAUACAUGGAACCAUUUUAGUCCCAUUUGACUCACUUCAGACCAUCU", "RBNS enrichment (R)": 0.493}
{"Sequence": "GUUUUCCGAUGAUGAGCUUCCCUAGACAGAUCAUGCUCCACGUCCACGGUGUUCUCAGCACCGUGAUCUGUCAGCUGUGCUCUCUUAGCCUCCAGCCUGAGCUCUCAAGA", "RBNS enrichment (R)": 0.289}
{"Sequence": "UAUGGCUGUUGAAAAGUAUAGAGCUAAAUUGAUUUAAUUACACUUUCCUUUGUACUUUAAAAAAAAGUAUGCUAGCACUAUUGUACCUUGAAAGGAUUUCCACCAGACUG", "RBNS enrichment (R)": 1.8}
{"Sequence": "UACGUAGGCGAUAUAUGUAAGUGUUCUGAUAACAUGACUCUAAUGGUGUUUAAGUGUUCUGAUAACCUGCUUUUAAUAGUUGUGUAUGCCAAAGUCUUUCCCAGCACCUC", "RBNS enrichment (R)": 0.292}
{"Sequence": "ACCCUUCUCUCUAGACUUGGGAAGCACUCCUUCCUAGAAGCCACACAUCACUCCAAGGCUCAGCUGGGCGCUGCUCAUCCCCAACUCUCAUAGUGACAUCACCUGUGGAU", "RBNS enrichment (R)": 0.362}
{"Sequence": "GUGCCUGGUUUAUUUAACUAAUUAAUACCUCCUCUGUUGAUGAGCUAUUGAGAGUUGCAGUGUUUUACUUUUUAAUACAGUGACUGCACUUGGGACAGACUAUUUGUAGU", "RBNS enrichment (R)": 0.426}
{"Sequence": "CGGUAUUCAAGUGGUUCACAGAGAACAGCAGUUAGUUCCUGGUUCUGAGAACCACUUGUCCCAGUAUGACACCUCUUACUAUCUCAGCAGCCUGUGCAGGGUCUCUGUCC", "RBNS enrichment (R)": 0.296}
{"data": "Sample 3", "target": "ABI1, truncated, D143A, DHFR fusion (Arabidopsis thaliana)", "method": "DHFR PCA, deep sequencing", "sample": "yeast", "notes": "methotrexate growth selection, single substitutions", "together with": "(+)-ABA 0.032 µM", "relative to": "wild-type fitted maximum", "direction": "higher = stronger binding", "starting sequence": "PYL1, truncated, DHFR fusion (Arabidopsis thaliana); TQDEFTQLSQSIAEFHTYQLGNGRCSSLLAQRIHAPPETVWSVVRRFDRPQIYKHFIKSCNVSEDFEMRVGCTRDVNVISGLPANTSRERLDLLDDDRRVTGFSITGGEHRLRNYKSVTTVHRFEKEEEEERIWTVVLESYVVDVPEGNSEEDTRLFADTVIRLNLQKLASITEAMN"}
{"Variant": "N77G", "relative binding score": "12%"}
{"Variant": "E127H", "relative binding score": "47.7%"}
{"Variant": "P50Q", "relative binding score": "-3.62%"}
{"Variant": "T120W", "relative binding score": "-0.148%"}
{"Variant": "E128H", "relative binding score": "64.3%"}
{"Variant": "Q51C", "relative binding score": "-2.51%"}
{"Variant": "A35M", "relative binding score": "2.3%"}
{"Variant": "P50I", "relative binding score": "-2.96%"}
{"Variant": "D95E", "relative binding score": "-4.59%"}
{"Variant": "Q19D", "relative binding score": "45.2%"}
{"Variant": "K116Y", "relative binding score": "2.08%"}
{"Variant": "D144V", "relative binding score": "0.392%"}
{"Variant": "D65H", "relative binding score": "17.8%"}
{"Variant": "N114L", "relative binding score": "-0.122%"}
{"Variant": "F56W", "relative binding score": "1.8%"}
{"Variant": "F124I", "relative binding score": "57.8%"}
{"Variant": "N165V", "relative binding score": "4.55%"}
{"data": "Sample 4", "target": "Hepatocyte nuclear factor 3-alpha (Foxa1, Mus musculus, UniProt P35582, residues 1-468, full length assumed)", "method": "EMSA with sequencing", "form": "double-stranded DNA, one strand shown", "sample": "in vitro", "tested at": "10 and 20 nM", "notes": "whole designed probe, mean of two concentrations, ends assumed", "relative to": "negative control set to 0", "direction": "higher = stronger binding", "constant ends, left off below": "GTGAGCGGTGCCCATTGATGGGGAAC … TTTCACTGGGATCGTGGGGAC", "sequence of UniProt P35582 (whole entry, looked up)": "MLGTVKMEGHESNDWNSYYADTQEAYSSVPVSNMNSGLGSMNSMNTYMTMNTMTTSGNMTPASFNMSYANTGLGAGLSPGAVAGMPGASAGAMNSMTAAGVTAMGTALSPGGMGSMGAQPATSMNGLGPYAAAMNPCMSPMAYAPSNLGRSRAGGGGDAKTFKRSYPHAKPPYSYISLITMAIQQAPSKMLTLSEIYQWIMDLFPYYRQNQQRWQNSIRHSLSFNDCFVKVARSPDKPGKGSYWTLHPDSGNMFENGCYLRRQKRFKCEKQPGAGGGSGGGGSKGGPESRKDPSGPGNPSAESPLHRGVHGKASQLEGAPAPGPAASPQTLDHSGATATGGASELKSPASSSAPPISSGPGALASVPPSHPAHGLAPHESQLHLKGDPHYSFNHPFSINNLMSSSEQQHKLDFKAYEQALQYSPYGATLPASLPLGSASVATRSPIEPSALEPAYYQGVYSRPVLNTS"}
{"Sequence": "TAAGCAAATACCATGACATAAATTTCTTCTGTTGACCACACTGGCTGTTTAACACAGCTCTAGTGACTTCATGGGGCTGAATGAGTTTTCGATGTTTACTTAGCTGGTGGGCCTAATCAGTGTCATCATCTTTTTCATATGACCAGTGAACAGTCCATAGCTTGCTACTCAAAGCGTGATCCACAGGCCATCC", "normalised bound fraction [ratio]": 0.502}
{"Sequence": "GCCACAGTTCAAGTTCAAAGAGAAACACTCTAGCAACTTCTGAAAGCAGGAACTGTATGCAACTGAATGACCTCATCCGGCACAGAAGCCAGAGCAATCTATGAAAAACAAACCGTACCAACTCTGGTACCAGTTACTGACCTTCCAGACCAAGAGAACGTGCTGGCAGCACTGGTGAAATGTACTTGTCTGT", "normalised bound fraction [ratio]": -0.0143}
{"Sequence": "ATCTTCCCCCTCTTCCTTGCCCCACCAGCTCACCTACGGGGGTTATTTGCACAAAGGAAAATAAATAAAGCCGGCATTCGTTAACCCTCTTCTGGCGCAAACTGCTGTTTGCTCTGCATGAATCATGGTCCTTACGCGAGGCGTGGCTCCGGGAGAGCAAAGCACCGTGTCAGGCGCATGATCCGGGCTCGCC", "normalised bound fraction [ratio]": 0.383}
{"Sequence": "TTAATCAAATCAGCTCAATCCATACGTGCACTTCTTAAAATATATGAATTGATCCTACGTGTTGTAAGCAAACACAGACACATCCAGCTCCTTATTTACTTAGCCCTGATTTAAATAATGATGTGCTTTTTTGCTGACATCTTCTCACAATTCAGCTTTGTTTTTTTTCTTTTGTCCAAGAAATGTCTCTAGA", "normalised bound fraction [ratio]": 0.473}
{"Sequence": "TATCTTTCCTCTGACTGACAGCCTGAAGGATCGTCTATGTGATTTTTGTGTTGCTGAGGTGAAAACAATCTTTATTTGGATTGAATAGCAGAGTAAACAGGAATGAAAAAGAGACACAAAAGTTTACAGTACAGATGGTTTTCCAATTCTTTTACAAAAATTGTCTGTCTTATCAATTAAAGGTGCATTTACC", "normalised bound fraction [ratio]": 0.203}
